Experimental data of several laboratories.
Compare with care: the assays were run in different laboratories.
EGFR L858R: Epidermal growth factor receptor (EGFR, Homo sapiens, UniProt P00533, L858R)
EGFR: Epidermal growth factor receptor (EGFR, Homo sapiens, UniProt P00533)
EGFR T790M: Epidermal growth factor receptor (EGFR, Homo sapiens, UniProt P00533, T790M)
EGFR del746-750: Epidermal growth factor receptor (EGFR, Homo sapiens, UniProt P00533, del746-750)

| SMILES | target | assay | system | conditions | how to read | quantity | result |
| --- | --- | --- | --- | --- | --- | --- | --- |
| COc1ccc(-c2nn(-c3ccc(S(C)(=O)=O)cc3)cc2C=N/N=c2\[nH]c(-c3ccc([N+](=O)[O-])cc3)cs2)cc1 | EGFR L858R | kinase activity, inhibitor | – | 0.1 µM | – | inhibition | 61.5% |
| COc1cc(N2CCN(C)CC2)ccc1Nc1nc(N)n(C(=S)NCc2c(Cl)cccc2Cl)n1 | EGFR | enzyme activity | – | 10 µM | relative to: control | remaining activity | 3.8% |
| CCCOc1ccc(OC)c(F)c1C(=O)c1ccc(C(=O)N[C@@H]2CNC[C@H]2NC(=O)c2ccc3[nH]ncc3c2)cc1 | EGFR T790M | enzyme activity | – | 10 µM | – | remaining activity | 106% |
| COc1ccc(-c2nn(-c3ccc(S(C)(=O)=O)cc3)cc2/C=N/N=c2\[nH]c(-c3ccc(Br)cc3)cs2)cc1 | EGFR | kinase activity, inhibitor | – | 100 µM | – | inhibition | 93.4% |
| C=CC(=O)N1CCC(C(=O)NCC(=O)N2CCN(c3nc(-c4cnc(N)nc4C(F)F)nc(N4CCOCC4)n3)CC2)CC1 | EGFR del746-750 | KINOMEscan | – | 1 µM | – | remaining binding | 95% |
| C=CC(=O)N1CCC(COCC(=O)N2CCN(c3nc(-c4cnc(N)nc4C(F)F)nc(N4CCOC[C@@H]4C)n3)CC2)CC1 | Epidermal growth factor receptor (EGFR, Homo sapiens, UniProt P00533, L858R/T790M) | KINOMEscan | – | 1 µM | relative to: DMSO control | remaining binding | 98% |
| COc1cc(N2CCN(C)CC2)ccc1Nc1nc(N)n(C(=O)NCc2ccccc2S(=O)(=O)C(C)C)n1 | EGFR L858R | enzyme activity | – | 10 µM | relative to: control | remaining activity | 6.2% |
| C[C@@H](c1ccc(-n2cnc3c(N)ncnc32)cc1)N1CCc2nn(C)c(Cc3ccccc3)c2C1=O | EGFR T790M | KINOMEscan | – | 0.1 µM | relative to: DMSO control | remaining binding | 90% |
| [2H]c1cc(C)c(NC(=O)c2cnc(Nc3cc(N4CCC(O)CC4)nc(C)n3)s2)c(Cl)c1 | EGFR | – | – | 0.001 µM | – | inhibition | < 50% |
| CC(C)Oc1cc(N2CCN(C)CC2)ccc1Nc1nc(N)n(C(=O)NCc2ccccc2S(=O)(=O)C(C)C)n1 | Epidermal growth factor receptor (EGFR, Homo sapiens, UniProt P00533, L861Q) | enzyme activity | – | 10 µM | relative to: control | remaining activity | 14% |
| CC(C)C[C@H](NC(=O)[C@H](CO)NC(=O)[C@H](CO)NC(=O)CNC(=O)[C@@H]1CCCN1C(=O)[C@H](Cc1ccc(O)cc1)NC(=O)[C@H](CC(C)C)NC(=O)[C@H](CO)NC(=O)[C@H](CS)NC(=O)[C@H](CC(C)C)NC(=O)[C@@H](N)CC(C)C)C(=O)O | Epidermal growth factor receptor, extracellular domain (EGFR, Homo sapiens, UniProt P00533) | binding, first site, surface plasmon resonance | immobilised soluble EGFR | model, binding, one to two | – | koff | 0.06 s⁻¹ |
| C#Cc1cccc(Oc2ccc(-c3nn([C@@H]4CCCN(C(=O)C=C)C4)c4ncnc(N)c34)cc2)c1 | EGFR | ABPP-SILAC | – | 1 µM, 1 h | relative to: DMSO | SILAC ratio | 11 |
| CCOc1cc(N2CCN(C)CC2)ccc1Nc1nc(N)n(C(=O)NCc2ccccc2S(=O)(=O)C(C)C)n1 | Epidermal growth factor receptor (EGFR, Homo sapiens, UniProt P00533, del752-759) | enzyme activity | – | 10 µM | relative to: control | remaining activity | 12% |
| CC(C)C[C@H](NC(=O)[C@H](CO)NC(=O)[C@H](CO)NC(=O)CNC(=O)[C@@H]1CCCN1C(=O)[C@H](Cc1ccc(O)cc1)NC(=O)[C@H](CC(C)C)NC(=O)[C@H](CO)NC(=O)[C@H](CS)NC(=O)[C@H](CC(C)C)NC(=O)[C@H](CC(C)C)NC(=O)CCCCCNC(=S)Nc1ccc2c(c1)C(=O)OC21c2ccc(O)cc2Oc2cc(O)ccc21)C(=O)O | EGFR | binding, second site, LigandTracer cell binding | A-431 | FITC-labelled, model, binding, one to two | – | koff | 6.29e-05 s⁻¹ |
| [2H]c1cc(C)c(NC(=O)c2cnc(Nc3cc(N4CCCCC4)nc(C)n3)s2)c(Cl)c1 | EGFR T790M | – | – | 0.01 µM | – | inhibition | < 30% |
| COc1cc2ncnc(Nc3ccc(F)c(Cl)c3)c2cc1OCCCN1CCN(C(=O)CCCCCCCCCCNC(=O)C[C@H](NC(=O)[C@@H]2C[C@@H](O)CN2C(=O)[C@@H](c2cc(C)no2)C(C)C)c2ccc(-c3scnc3C)cc2)CC1 | EGFR del746-750 | protein degradation, degrader, western blot | HCC827 | 100 nM | – | duration of degradation | ≤ 48 h |
| COc1cc(N2CCN(C)CC2)ccc1Nc1nc(N)n(C(=O)NCc2c(Cl)cccc2Cl)n1 | Epidermal growth factor receptor (EGFR, Homo sapiens, UniProt P00533, A750P/del747-749) | enzyme activity | – | 10 µM | relative to: control | remaining activity | 7.1% |
| O=C(NC1CCC1)c1ccc2nc(-c3cccc(NS(=O)(=O)NCCN4CCCCC4)c3)cn2c1 | Epidermal growth factor receptor (EGFR, Homo sapiens, UniProt P00533, G719S) | enzyme activity | – | 10 µM | – | remaining activity | 100% |
| CC(C)Cc1ccc(-c2nn(-c3ccc(S(C)(=O)=O)cc3)cc2/C=N/N=c2\[nH]c(-c3ccc([N+](=O)[O-])cc3)cs2)cc1 | EGFR | kinase activity, inhibitor | – | 100 µM | – | inhibition | 91.4% |
| C#Cc1cc(-c2cc(Nc3nc(N[C@@H](C)c4ccc(F)cn4)ncc3Cl)n[nH]2)ccc1C=O | Epidermal growth factor receptor (EGFR, Homo sapiens, UniProt P00533, C797S) | enzyme activity, inhibitor | – | 0.2 µM | – | inhibition | 9.9% |

Repeated from above:
| SMILES | target | assay | system | conditions | how to read | quantity | result |
| --- | --- | --- | --- | --- | --- | --- | --- |
| COc1ccc(-c2nn(-c3ccc(S(C)(=O)=O)cc3)cc2/C=N/N=c2\[nH]c(-c3ccc(Br)cc3)cs2)cc1 | EGFR | kinase activity, inhibitor | – | 100 µM | – | inhibition | 93.4% |
| COc1ccc(-c2nn(-c3ccc(S(C)(=O)=O)cc3)cc2C=N/N=c2\[nH]c(-c3ccc([N+](=O)[O-])cc3)cs2)cc1 | EGFR L858R | kinase activity, inhibitor | – | 0.1 µM | – | inhibition | 61.5% |
| [2H]c1cc(C)c(NC(=O)c2cnc(Nc3cc(N4CCCCC4)nc(C)n3)s2)c(Cl)c1 | EGFR T790M | – | – | 0.01 µM | – | inhibition | < 30% |
